Measurements collected from several papers.
Numbered parts are unrelated; each lists some results of a single study.

Block 1 — technique: universal PBM; molecule type: double-stranded DNA, one strand shown; medium: in vitro; tested at: not given; reading: higher = stronger binding
Target: Sal-like protein 4, full length isoform B (SALL4, Homo sapiens, UniProt Q9UJQ4-2, residues 1-616)
Setting: 8-mer, flanks averaged, mean of replicates
Strand | E-score
ATTCGCCC | -0.188
ACTAGCCA | 0.0205
CTTGGTCA | 0.0325
GGGTAATA | 0.273
AATAGAAC | 0.266
AGCAGCCT | -0.115
AAACTGAT | 0.0483
CCAAGCTC | -0.217
GCGAGTTA | -0.0258
ATGAGCCC | -0.169
AGCGCTAA | -0.0414
ATCGCTAA | 0.082
GGAGCGTA | -0.133
ACCGTCTC | -0.0605
GTGTGGCA | -0.157
CAGCTTCC | -0.25
GCTTCCAC | -0.214
ATTAGAAC | 0.277
CCATGCTA | 0.0219
CACGACGC | -0.256

Block 2 — technique: protein-binding microarray; molecule type: double-stranded DNA, one strand shown; medium: in vitro; tested at: not given; reading: higher = stronger binding
Target: Max dimerization protein 1, bHLH-zipper, MAX partner unstated (MXD1, Homo sapiens, UniProt Q05195, residues 56-136)
Setting: k-mer, scored over probes, only values ≥0.25
Residues (chain): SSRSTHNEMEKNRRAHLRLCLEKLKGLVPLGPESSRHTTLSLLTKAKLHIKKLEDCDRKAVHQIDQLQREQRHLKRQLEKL
Strand | E-score
ACCACGCA | 0.276
ACACGCGT | 0.446
AACATGCG | 0.41
ATGTGGAC | 0.283
CCCCCCAC | 0.294
AACGGGGG | 0.298
CCATGTGC | 0.472
GCGGGGAA | 0.301
CACGTTGC | 0.426
CCACCCTC | 0.262
CGTGACGA | 0.273
AGCGTGCC | 0.324
CCATGCTC | 0.368
CTGCCCAC | 0.279
CCCCCATC | 0.291
TGCGTCCA | 0.273
ATGTGGTG | 0.254

Block 3 — technique: protein binding microarray; molecule type: double-stranded DNA, one strand shown; medium: in vitro; tested at: not given; reference: not given; reading: higher = stronger binding
Target: Histone acetyltransferase KAT6A, both winged helices, GST fusion (KAT6A, Homo sapiens, UniProt Q92794, residues 1-181)
Setting: 8-mer, flanks averaged, mean of 2 arrays, mostly near background
Target sequence (chain): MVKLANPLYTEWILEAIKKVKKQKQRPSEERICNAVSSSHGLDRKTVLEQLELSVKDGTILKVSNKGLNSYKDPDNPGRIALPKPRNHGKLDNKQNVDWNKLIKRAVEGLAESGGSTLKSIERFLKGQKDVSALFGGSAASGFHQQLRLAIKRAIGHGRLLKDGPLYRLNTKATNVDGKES
Strand | E-score
TAAACTAA | -0.0882
CTGGTCTC | -0.205
ATACTACA | 0.0415
AGGTCGTG | -0.173
AGACTAAA | -0.0499
AAGGTGAC | -0.209
CGGATCGA | 0.0703
CTATTTAA | 0.092
ACCACCAG | -0.247
CGGTAACA | 0.122
GAGTAATA | 0.0324
ATGCTAAG | -0.0831
CCTCTGAG | -0.164
ACCCGTCC | 0.167
CACATGGG | -0.185
ACTTAACT | -0.104
ACGGTGCC | 0.279
AATATCGA | 0.00588
TACATAAA | -0.174
CGCCTCGC | 0.197
GGTCGGAC | 0.113
CATACGAA | -0.0442
ATTCTTGA | -0.072
ACTCGGCC | 0.182
TGGACACA | -0.0287

Block 4 — technique: RNA Bind-n-Seq; molecule type: RNA; medium: in vitro; tested at: 100 nM; reference: input RNA pool; reading: higher = stronger binding
Target: RING finger protein unkempt homolog, zinc fingers 1-6, SBP tag (UNK, Homo sapiens, UniProt Q9C0B0, residues 30-357)
UniProt Q9C0B0, sequence (30-357, looked up): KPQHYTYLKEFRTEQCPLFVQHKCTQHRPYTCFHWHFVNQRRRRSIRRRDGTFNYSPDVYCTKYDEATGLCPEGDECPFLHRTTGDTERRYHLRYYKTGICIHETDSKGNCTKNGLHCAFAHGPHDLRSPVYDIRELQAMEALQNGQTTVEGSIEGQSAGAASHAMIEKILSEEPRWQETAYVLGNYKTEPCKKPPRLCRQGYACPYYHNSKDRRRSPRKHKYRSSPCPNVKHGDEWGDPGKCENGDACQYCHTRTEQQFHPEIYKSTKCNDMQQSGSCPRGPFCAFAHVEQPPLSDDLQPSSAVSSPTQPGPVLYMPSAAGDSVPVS
Setting: RNA with constant flanks, vertebrate orthologous sites, ends assumed
All sequences stand within: GGGAGUUCUACAGUCCGACGAUC … CAACAGAGGAUUGAGCAUCA
Strand | bound/input enrichment
GAAAGUCCCCAUUGUCACUGAGAACCACCAAAUCUGACUUUUACAUUUGGUCUCAGAAUUUAAGUUCCUGCCCUGUUGGGUUUUUUUUUUUUUUUAAACAGUUUUCAAAAGUUCUUAAAG | 0.75 ratio
UAUAAUUAUGAAAAUCUAAAGGAUUUUUAAUGUUUAAUUUCCCCCAGCAUAUAUAUUAAGACCUCUUUUUCCAGGCCGAUCAUUCAGAGUGUGCGAGUGUGUGUGCACAUGUUACAAAGA | 0.694 ratio
AAAUUUAUUUCAUGCCCUGGACUCCCUAUCGCACCGAUACUUUAAUAGAAUAUGCUUCUUUAGAAGAUUUCCAAAAUAGUCGCCAAACAACAACCUAUAAACUUCCAAAUCGAGUAGAUG | 1.15 ratio
AGCUUCUGGCGACAUUUGGCCUGGCCUUUCAGCGUAUGAUAACAGUCCAAGGUCACCCCACAGUCCUUCUAUUGCCACCCCGCCUAGUCAGAGUUCAUCUUGCUCUGAUGCCCCUUUGCU | 0.566 ratio
UGGGUUAUUCCUAUUAUUAUCAAGUAGCUGGAAUUGUGAAGGUCGGAGUAGUUAGAUCUUUAGCUUUUAUUCCUUAUUUUUUUUUUGUAUUACUCUCCAUGUGUAUAAAUUAUUGAUCAU | 3.53 ratio
CAACUCAAUGGUGGAGGGUUCAGAACUCAAAAAGGUCCGCUCCAACUCUAGAAUAUACCAUAGGUAUUUUUUACUAGAUGCUGACAUGCAAAGCCUGAGGUGGGAGCCAUCUAAGAAGGA | 0.185 ratio
GAUUUGGACCUUGGAGCUGAACCAGGGAGCUAGCAAAAGUAAAGCAGACUUAUAAAAUUAUAGCUAUGUGCAGCUGCACAACACAGUCCUACCACUAGCAGCUGUGUUAAAGUAUUUAUA | 0.751 ratio
AAAUUUAUUUUAUGCCCUGGACUCCCUACCGCACUGAUACUUUAAUAGAGUAUGCUUCUUUAGAAGAUUUUCAAAACAGCCGCCAGACAACAACAUACAAACUUCCAAACCGAGUAGACG | 2.04 ratio
AGGCACAACUGACUGGUUCACAGCAGCAUUCCUUACAGAAUUAUUUAGCAAAUGCAAGUAUAGUUAAUUUUCAGGAAACAACCAGGCAGUCAUCUUUAUCCUGUAGCUCAAUUGGAGAUU | 1.15 ratio
CAUUAACACACAAAAUGUCUCCAGGGGGGUAUUAGAUUUGAUUUCUUACAUAUAAAACAAACUAGCCAACCAUUUUUAAAGUAGAAGAGGGUCUCUGAUAGUAAAUGAAAUACUUUUUUU | 1.58 ratio
AACUGGUUUUGGGUUUGUUGUUUUUUUUUAAAUUUCUCUCCAGUUCUUUUUUUUUUUACAUCGUUGUCUGUCUGUGUCUGUCACAUUUCCUUCUCAGGCGAAGGGCUAGAGUUAAAAAAA | 0.826 ratio

Block 5 — technique: protein-binding microarray; molecule type: double-stranded DNA, one strand shown; medium: in vitro; tested at: 250 nM; setting: 60-bp whole probe; added: salmon DNA 0.4 mg/ml; reference: random background probes; reading: higher = stronger binding; all sequences stand within: GCCTAGCAC … GTCTTGATTCGCTTGACGCTGCTG
Target: Interferon regulatory factor 5, full length, phosphomimetic (IRF5, Homo sapiens, UniProt Q13568-2, residues 1-514, K96S/S451D/S453D/S456D/S462D)
Strand | log fluorescence
TACGAACTGGGGTATCGAGACGTGCTA | 0.203 z-score
TGTCATTTTCTCTTATTCTAGTGCTAG | 2.47 z-score
TCAGCTTTCCTTTATGTACTGTGCTAG | 1.33 z-score
TTAGGACTGGGGCTCGGTTAGTGCTAG | -0.452 z-score
TTAGGTTGCGGGACTGGGTTAGTGCTA | -0.268 z-score
GACGGACTTGACACTGGGGACGTGCTA | -0.524 z-score
GATGGACTGGGACTGGGGACGTGCTAG | -0.373 z-score
TTAGGACTGGACTATCCGTTAGTGCTA | -0.0682 z-score
ATGTTTGTCACTCTCAGAATGTGCTAG | 0.712 z-score
GACGGTCTCCATCTCCTGACGTGCTAG | -0.249 z-score
TTAGGCTTCGGTTCCGGTTAGTGCTAG | 1.76 z-score
GACGGTTTCCATTTCCTGACGTGCTAG | 1.42 z-score
TTAGGTATCGACTATCGGTTAGTGCTA | 7.5 z-score
CAAACAGAGACCCGGCAAGTGTGCTAG | -0.249 z-score
TATTTTCTGAATGTCTTCCCGTGCTAG | 1.94 z-score
GACCGTATCCTACTGCTGACGTGCTAG | -0.0561 z-score
ATAGGACTGCTACTGCTTTAGTGCTAG | -0.317 z-score
AGAAATTTTTTTTCTAACTAGTGCTAG | 1.27 z-score
CTACTTCTGTTTTTGCTTTCGTGCTAG | 3.16 z-score
TTAGGTTTCCTACTGCTTAAGTGCTAG | 0.567 z-score
TTAGGACTAGACTATCGGTTAGTGCTA | 5.45 z-score
TTAGGTTTCGGGTATCGGTAAGTGCTA | 9.73 z-score
GACGGACTGCTTCTTCTGACGTGCTAG | -0.427 z-score
GAGTTTCTATTTTCTGAATGGTGCTAG | 5.73 z-score
TTAGGACTGGGTCTCGGTGAGTGCTAG | -0.522 z-score

Block 6 — technique: RNA Bind-n-Seq; molecule type: RNA; medium: in vitro; tested at: 200 nM; setting: whole 134-nt RNA, ends assumed; added: 150 mM KCl; reference: input library; reading: higher = stronger binding
Target: Ras GTPase-activating protein-binding protein 1, full length (G3BP1, Homo sapiens, UniProt Q13283)
UniProt Q13283, sequence (whole entry, looked up): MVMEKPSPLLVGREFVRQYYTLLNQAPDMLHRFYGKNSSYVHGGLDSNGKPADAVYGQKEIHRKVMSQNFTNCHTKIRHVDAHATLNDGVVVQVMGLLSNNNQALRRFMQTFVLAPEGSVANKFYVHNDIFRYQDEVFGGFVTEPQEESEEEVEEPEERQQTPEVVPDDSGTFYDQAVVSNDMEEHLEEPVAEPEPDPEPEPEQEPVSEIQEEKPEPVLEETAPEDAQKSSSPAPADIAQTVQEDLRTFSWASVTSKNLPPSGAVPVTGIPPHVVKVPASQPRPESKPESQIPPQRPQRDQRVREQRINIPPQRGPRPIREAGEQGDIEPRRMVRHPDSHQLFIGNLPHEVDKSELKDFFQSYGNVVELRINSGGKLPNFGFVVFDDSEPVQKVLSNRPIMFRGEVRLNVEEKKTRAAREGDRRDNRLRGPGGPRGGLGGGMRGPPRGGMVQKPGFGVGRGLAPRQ
All sequences stand within: GGGAGUUCUACAGUCCGACGAUC … UGGAAUUCUCGGGUGUCAAGG
Strand | log2 enrichment
UGGGAGGUGGAUUUUGUUUAUUUUUUUAGCUCAUUUCCAGGGGUGGGAAUUUUUUUUUAAUAUGUGUCAUGAAUAAAUUUGUUUUUGAAA | 0.377
UCAAGUCCUGUGCUACACAUCGUAUGUACCGAAUCGGGUUUUUGGGAGGGUGGGAAAGUAUUAUGUUACGCCGUUCGGAUCUGCACUUCC | 0.595
CACAGACAACACGCACCCACACAGACACAGAGGGAAGGGGUUGGGCUGGGGACAGGGUGCACAGCAGGGCGGGGUAGGACCCCAGCCCCU | 1.82
GGUAGCAAGAGCUCCAGAGAGAAGUCGAGGAAGAGAGAGACGGGGUCAGAGAGAGCGCGCGGGCGUGCGAGCAGCGAAAGCGACAGGGGC | 0.745
CCUGUGCUACACAUCGUAUGUACCGAAUCGGGGAAAAAGGGGAAAAAAAGGGGAAAGGGGAAAGUAUUAUGUUACGCCGUUCGGAUCUGC | 0.463
GCAGGAAGUUAAAACAAAUGGAAAUGCUUCGGAUAGUGGCAGGGGUGGGGGUUGCUAAGGAAAGGGUGGGAUGGGAGUGGGUAAAGAGUU | 0.883
GCAGGAAGUAAAAACAAAUGGAAAUGCUUCGGAUAGCGGCAGGGGUGGGGGUUGCUAAGGAAAGGGUGGGAUGGGAGUGGGUAAAGAGUU | 1.05
UCCUCAAGUCCUGUGCUACACAUCGUAUGUACCGAAUCGGUUUGGAGGAGGAAAGUAUUAUGUUACGCCGUUCGGAUCUGCACUUCCAGC | -0.805
UGGGAGGUGGAUUUUGUUUAUUUUUUUAGCUCAUUUCCAGGGGUGGGAAUUUUUUUUUAAUAUGAGUCAUGAAUAAAGUUGUUUUUGAAA | -0.0205
UGGGAGGUGGAUUUUGUUUAUUUUUUUAGCUCAUUUCCAGGGGUGGGAAUUUUUUUAUAAUAUGUGUCAUGAAUAAAGUUGUUUUUGAAA | 0.403
UAACUUUAGAGGAGGAUCUGAUGGAUAUGACAGUGGACGUGGAUUUGGGGAUGGCUAUAAUGGGUAUGGAGGAGGACCUGGAGGUGGCAA | 0.479
CACAGACAACACGCACCCACACAGACACAGAGGGAAGGGGUUGGGAUGGGGACAGGGUGCACAGCAGGGCGGGGUAGGGCCCCAGCCCCU | 1.95
GCAGUAAGUAAAAACAAAUGGAAAUGCUUCGGAUAGUGGCAGGGGUGGGGGUUGCUAAGGAAAGGGUGGGAUGGGAGUGGGUAAAGAGUU | 0.537
UGUGCUACACAUCGUAUGUACCGAAUCGGGUUUUUUUGGGGUUUUUUUGGGGUUUUUUUGGGGAAAGUAUUAUGUUACGCCGUUCGGAUC | -0.658
